Measurements from different studies.
Every numbered part comes from another study and shows a few of its results, in no order. Several values in a cell are separate wells, animals, samples, runs or records.
Chain of UniProt O96013 (whole entry, looked up): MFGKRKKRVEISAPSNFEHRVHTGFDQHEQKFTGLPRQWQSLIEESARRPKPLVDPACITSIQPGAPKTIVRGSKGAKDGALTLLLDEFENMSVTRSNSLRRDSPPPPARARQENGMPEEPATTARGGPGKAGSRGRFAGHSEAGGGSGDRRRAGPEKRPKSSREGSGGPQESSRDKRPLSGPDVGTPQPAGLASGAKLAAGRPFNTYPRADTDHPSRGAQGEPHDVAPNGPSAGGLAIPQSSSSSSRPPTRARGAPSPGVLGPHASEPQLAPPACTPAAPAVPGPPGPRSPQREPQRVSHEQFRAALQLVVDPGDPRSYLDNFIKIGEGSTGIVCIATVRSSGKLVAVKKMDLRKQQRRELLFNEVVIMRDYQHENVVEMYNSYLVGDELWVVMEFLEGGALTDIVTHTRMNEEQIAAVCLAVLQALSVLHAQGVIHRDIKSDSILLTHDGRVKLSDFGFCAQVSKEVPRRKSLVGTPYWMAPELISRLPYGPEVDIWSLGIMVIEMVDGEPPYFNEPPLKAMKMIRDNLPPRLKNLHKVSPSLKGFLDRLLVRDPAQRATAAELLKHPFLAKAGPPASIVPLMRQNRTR
Chain of UniProt Q9UPZ9 (whole entry, looked up): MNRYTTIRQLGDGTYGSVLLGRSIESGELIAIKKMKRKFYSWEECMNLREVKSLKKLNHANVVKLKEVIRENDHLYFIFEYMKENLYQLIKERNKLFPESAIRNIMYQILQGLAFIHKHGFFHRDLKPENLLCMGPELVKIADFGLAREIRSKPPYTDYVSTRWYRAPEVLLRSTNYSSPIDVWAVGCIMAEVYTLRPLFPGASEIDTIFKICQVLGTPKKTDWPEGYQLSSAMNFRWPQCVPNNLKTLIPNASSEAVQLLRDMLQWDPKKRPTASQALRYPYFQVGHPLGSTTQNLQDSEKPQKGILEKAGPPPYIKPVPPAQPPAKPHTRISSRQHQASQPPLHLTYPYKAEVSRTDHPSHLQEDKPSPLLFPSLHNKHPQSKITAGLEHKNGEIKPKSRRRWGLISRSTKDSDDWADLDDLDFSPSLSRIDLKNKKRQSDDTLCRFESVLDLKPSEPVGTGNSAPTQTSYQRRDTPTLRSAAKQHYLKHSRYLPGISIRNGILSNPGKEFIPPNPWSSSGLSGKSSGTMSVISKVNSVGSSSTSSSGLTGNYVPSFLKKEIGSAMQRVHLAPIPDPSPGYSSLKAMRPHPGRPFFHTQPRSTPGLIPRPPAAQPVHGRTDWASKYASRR
Chain of UniProt Q9NRP7 (whole entry, looked up): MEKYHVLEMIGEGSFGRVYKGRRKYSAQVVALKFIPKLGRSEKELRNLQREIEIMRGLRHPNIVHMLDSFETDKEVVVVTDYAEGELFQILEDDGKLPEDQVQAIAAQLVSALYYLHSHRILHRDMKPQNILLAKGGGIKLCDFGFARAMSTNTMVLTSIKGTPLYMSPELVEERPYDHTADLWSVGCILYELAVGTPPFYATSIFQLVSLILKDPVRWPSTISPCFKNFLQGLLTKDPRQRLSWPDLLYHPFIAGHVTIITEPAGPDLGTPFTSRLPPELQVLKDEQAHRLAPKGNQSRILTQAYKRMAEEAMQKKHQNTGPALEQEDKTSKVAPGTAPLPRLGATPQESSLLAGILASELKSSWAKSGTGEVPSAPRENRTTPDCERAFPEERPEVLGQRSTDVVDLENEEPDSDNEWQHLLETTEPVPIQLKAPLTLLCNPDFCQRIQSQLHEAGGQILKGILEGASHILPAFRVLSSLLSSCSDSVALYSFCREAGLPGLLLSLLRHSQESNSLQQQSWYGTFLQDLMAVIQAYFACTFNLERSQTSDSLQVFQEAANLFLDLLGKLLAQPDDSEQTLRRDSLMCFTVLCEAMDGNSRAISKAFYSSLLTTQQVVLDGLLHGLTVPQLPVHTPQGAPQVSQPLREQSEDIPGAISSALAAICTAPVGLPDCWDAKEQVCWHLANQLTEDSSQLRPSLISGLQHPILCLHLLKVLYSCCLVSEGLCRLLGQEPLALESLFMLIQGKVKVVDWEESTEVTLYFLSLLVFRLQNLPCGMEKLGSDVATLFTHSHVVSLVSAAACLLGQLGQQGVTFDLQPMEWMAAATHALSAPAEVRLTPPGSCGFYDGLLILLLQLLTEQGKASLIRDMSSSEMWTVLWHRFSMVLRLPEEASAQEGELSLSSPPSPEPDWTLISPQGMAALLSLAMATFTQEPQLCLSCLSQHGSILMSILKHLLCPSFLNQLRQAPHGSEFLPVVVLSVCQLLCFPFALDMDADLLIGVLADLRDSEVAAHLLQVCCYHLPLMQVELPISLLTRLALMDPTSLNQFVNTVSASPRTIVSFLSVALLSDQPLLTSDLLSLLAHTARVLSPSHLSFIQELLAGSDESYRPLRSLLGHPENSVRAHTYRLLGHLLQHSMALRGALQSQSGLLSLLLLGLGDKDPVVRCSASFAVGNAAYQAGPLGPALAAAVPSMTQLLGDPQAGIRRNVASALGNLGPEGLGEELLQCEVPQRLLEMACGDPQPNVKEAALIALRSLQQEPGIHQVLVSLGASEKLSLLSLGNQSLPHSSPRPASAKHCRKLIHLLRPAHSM
Chain of UniProt Q13164 (whole entry, looked up): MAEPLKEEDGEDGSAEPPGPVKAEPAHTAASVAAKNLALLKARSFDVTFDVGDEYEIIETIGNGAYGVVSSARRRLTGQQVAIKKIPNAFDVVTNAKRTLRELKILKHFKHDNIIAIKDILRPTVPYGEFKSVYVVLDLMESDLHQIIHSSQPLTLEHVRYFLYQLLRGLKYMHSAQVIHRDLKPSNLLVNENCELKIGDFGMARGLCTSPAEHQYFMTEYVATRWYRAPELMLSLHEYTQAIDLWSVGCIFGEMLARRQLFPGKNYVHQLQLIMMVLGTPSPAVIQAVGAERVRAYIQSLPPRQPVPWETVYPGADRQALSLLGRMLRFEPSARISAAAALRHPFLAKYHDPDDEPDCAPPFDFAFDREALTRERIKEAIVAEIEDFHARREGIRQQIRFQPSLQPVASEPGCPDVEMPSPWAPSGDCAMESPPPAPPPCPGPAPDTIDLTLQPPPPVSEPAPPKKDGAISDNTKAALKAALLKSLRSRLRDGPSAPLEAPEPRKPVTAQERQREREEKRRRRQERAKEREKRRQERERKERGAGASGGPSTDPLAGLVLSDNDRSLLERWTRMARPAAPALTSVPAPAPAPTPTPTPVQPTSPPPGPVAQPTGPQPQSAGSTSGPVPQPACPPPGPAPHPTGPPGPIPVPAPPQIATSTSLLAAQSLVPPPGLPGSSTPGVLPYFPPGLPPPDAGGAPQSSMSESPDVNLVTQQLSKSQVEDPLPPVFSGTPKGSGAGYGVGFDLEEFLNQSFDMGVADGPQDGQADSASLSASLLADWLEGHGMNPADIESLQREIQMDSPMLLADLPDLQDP

Series 1
Compound: Cn1cc(-c2cccc(CN3CCC4(CC3)COc3c4ccc4c3CN([C@H]3CCC(=O)NC3=O)C4=O)c2)cn1
Species: Crbn I391V mouse, MC-38 tumour
setting | body weight change
oral, daily, 30 mg/kg, day 1, anti-PD1 combination study | 0%
30 mg/kg, day 1, with: anti-LAG3 antibody 10 mg/kg weekly | 0%
oral, 30 mg/kg once daily, day 14 | 0.8% and 6.2% and -2.1% and 1% and -0.5%

Series 2
Compound: CCC1(c2cccc(-c3cn(C)nc3C)c2)C2=C(Nc3n[nH]cc31)C(F)C(C)(C)CC2=O (single isomer, unassigned)
Tested at: 1 µM
target | test | how to read | remaining binding [%]
STK36 (Homo sapiens, UniProt Q9NRP7) | binding, competition with immobilised ligand | – | 100
MAPK7 (Homo sapiens, UniProt Q13164) | kinase binding, KINOMEscan | relative to: DMSO control | 100
SLK (Homo sapiens, UniProt Q9H2G2) | binding, competition with immobilised ligand | – | 100
INSRR (Homo sapiens, UniProt P14616) | kinase binding, KINOMEscan | relative to: DMSO control | 100
HCK (Homo sapiens, UniProt P08631) | kinase binding, KINOMEscan | relative to: DMSO control | 100
PAK4 (Homo sapiens, UniProt O96013) | kinase binding, KINOMEscan | relative to: DMSO control | 100
CAMKK2 (Homo sapiens, UniProt Q96RR4) | kinase binding, KINOMEscan | relative to: DMSO control | 100
CILK1 (Homo sapiens, UniProt Q9UPZ9) | kinase binding, KINOMEscan | relative to: DMSO control | 87

Series 3
Target: Cyclin-dependent kinase 12, with cyclin K (CDK12, Homo sapiens, UniProt Q9NYV4)
Chain of UniProt Q9NYV4 (whole entry, looked up): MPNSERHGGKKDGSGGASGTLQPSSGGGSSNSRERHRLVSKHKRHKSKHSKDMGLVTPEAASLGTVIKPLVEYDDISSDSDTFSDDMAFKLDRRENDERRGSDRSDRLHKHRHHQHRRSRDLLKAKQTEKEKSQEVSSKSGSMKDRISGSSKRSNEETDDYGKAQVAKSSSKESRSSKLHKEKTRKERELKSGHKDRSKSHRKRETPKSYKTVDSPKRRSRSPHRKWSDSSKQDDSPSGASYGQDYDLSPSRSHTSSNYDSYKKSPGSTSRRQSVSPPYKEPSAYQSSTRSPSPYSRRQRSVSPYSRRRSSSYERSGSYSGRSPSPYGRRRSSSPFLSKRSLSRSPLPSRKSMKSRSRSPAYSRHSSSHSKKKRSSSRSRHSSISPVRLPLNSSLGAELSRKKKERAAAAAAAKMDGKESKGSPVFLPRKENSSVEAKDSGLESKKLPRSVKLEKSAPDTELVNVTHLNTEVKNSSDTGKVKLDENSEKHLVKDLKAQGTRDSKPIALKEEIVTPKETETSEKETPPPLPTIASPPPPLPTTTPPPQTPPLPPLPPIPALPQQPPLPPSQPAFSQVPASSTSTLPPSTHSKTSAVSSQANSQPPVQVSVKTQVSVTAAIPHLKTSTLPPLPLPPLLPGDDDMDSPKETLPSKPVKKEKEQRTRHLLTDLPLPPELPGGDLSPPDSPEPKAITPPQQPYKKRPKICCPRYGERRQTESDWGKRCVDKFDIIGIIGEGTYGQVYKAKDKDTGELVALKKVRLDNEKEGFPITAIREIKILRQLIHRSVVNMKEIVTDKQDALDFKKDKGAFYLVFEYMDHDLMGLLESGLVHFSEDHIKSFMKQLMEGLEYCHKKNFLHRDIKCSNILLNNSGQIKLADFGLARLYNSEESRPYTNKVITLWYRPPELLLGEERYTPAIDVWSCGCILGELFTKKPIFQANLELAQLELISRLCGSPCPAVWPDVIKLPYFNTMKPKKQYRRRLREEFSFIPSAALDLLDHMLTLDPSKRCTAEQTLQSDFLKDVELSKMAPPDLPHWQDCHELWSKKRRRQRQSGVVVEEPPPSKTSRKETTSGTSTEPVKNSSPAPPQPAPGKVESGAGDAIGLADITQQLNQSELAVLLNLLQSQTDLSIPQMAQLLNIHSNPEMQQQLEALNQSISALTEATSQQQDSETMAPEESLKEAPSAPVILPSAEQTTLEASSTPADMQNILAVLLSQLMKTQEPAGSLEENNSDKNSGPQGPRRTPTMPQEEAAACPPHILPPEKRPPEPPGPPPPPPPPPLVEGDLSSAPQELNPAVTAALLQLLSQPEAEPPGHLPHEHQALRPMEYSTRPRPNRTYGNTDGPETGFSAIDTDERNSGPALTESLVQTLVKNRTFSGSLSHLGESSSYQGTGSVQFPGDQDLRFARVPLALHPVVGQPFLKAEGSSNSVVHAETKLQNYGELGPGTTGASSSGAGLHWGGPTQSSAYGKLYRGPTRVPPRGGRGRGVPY
Read-out: kinase activity
Mode: inhibitor
Method: ADP-Glo
Tested at: 0.6667 µM
Compound | inhibition
CCCCOc1nc(NCc2nc3cc(Cl)c(Cl)cc3[nH]2)c2ncn(CC)c2n1 | 58.2%
CCn1cnc2c(NCc3nc4cc(Cl)c(Cl)cc4[nH]3)nc(N3CCN(c4ccccn4)CC3)nc21 | 71.9%
CCn1cnc2c(NCc3nc4cc(Cl)c(Cl)cc4[nH]3)nc(N3CCN(Cc4ccncc4)CC3)nc21 | 85.4%
CC(=O)N1CCN(c2nc(NCc3nc4cc(Cl)c(Cl)cc4[nH]3)c3ncn(C)c3n2)CC1 | 56%
CCn1cnc2c(NCc3nc4cc(Cl)c(Cl)cc4[nH]3)nc(N3CCN(C(=O)c4ccccn4)CC3)nc21 | 77.6%
CCN(CC)CC(=O)N1CCN(c2nc(NCc3nc4cc(Cl)c(Cl)cc4[nH]3)c3ncn(CC)c3n2)CC1 | 67.3%
CC(=O)N1CCN(c2nc(NCc3nc4cc(Cl)c(Cl)cc4[nH]3)c3ncn(-c4cnn(C)c4)c3n2)CC1 | 78.3%
CCn1cnc2c(NCc3nc4cc(F)c(F)cc4[nH]3)nc(N3CCn4ncnc4C3)nc21 | 78%

Single results of other studies
Structure (SMILES) | organism | test | test system | setting | measurement | value
C#CCN1C(=O)C(O)(C(=O)O)Oc2cc(F)ccc21 (centres unmarked) | Arabidopsis thaliana | hypocotyl length | Col-0 | 50.0 µg/mL, 7 days, seed germination, dark | inhibition | 61.9%

Some of these lines once more (series 2):
target | test | how to read | remaining binding [%]
PAK4 (Homo sapiens, UniProt O96013) | kinase binding, KINOMEscan | relative to: DMSO control | 100
CAMKK2 (Homo sapiens, UniProt Q96RR4) | kinase binding, KINOMEscan | relative to: DMSO control | 100
